Measured values of several laboratories.
Compare with care: the assays were run in different laboratories. ± marks the error that the study gave. Values after ≈ are worked out from the molar mass of the structure shown.

Compound	test	system	setting	how to read	quantity	value
NC(=O)c1nc(F)c[nH]c1=O	UV-Vis spectrophotometry	supercritical CO2	120 min, 328 K, 24 MPa, 801.92 kg/m^3		solubility	1360 µg/mL (≈ 8.66 mM)
CC(=O)N[C@H](CCCCNC(=O)C(C)F)C(=O)N[C@@H](CS)C(=O)N[C@@H](CS)C(=O)N[C@@H](CCC(=O)O)C(=O)N[C@@H](Cc1c[nH]cn1)C(=O)N[C@H](Cc1ccccc1)C(=O)N[C@@H](CCCNC(=N)N)C(=O)N[C@@H](Cc1c[nH]c2ccccc12)C(=O)N[C@@H](CS)C(=O)N[C@@H](CCCNC(=N)N)C(=O)N1CCC[C@H]1C(=O)N[C@H](C(N)=O)C(C)C (stereo partly drawn) [fluorine-18 labelled]		C57BL/6 mice, male, B16-F10 tumour, tumor	intravenous, 4 h		tissue uptake	1.09 ± 0.23 %ID/g
CS(=O)(=O)CCCn1c(Cn2c(=O)n(CC(F)(F)F)c3ccncc32)cc2cc(Cl)ccc21		RSV-infected infants	concentration not given, low dose cohorts		patients with high MCH	0%
CC1(C)S[C@@H]2[C@H](NC(=O)[C@@H](C(=O)O)c3ccsc3)C(=O)N2[C@H]1C(=O)O		rat plasma	2400 ng/mL, three freeze-thaw cycles	relative to: nominal concentration	relative error	-2.3%
CCCCCCCCCCCCCCCC[N+](C)(C)C	ultrafiltration	human serum			unbound fraction in blood	0.112
CC(=O)N[C@H](CCCCN)C(=O)N[C@H](CC(C)C)C(=O)N[C@@H](CCN)C(=O)N[C@H](CO)C(=O)N[C@H](CC(C)C)C(=O)N[C@H](CC(C)C)C(=O)N[C@@H](CCN)C(=O)N[C@@H](C(=O)N[C@H](CC(C)C)C(=O)N[C@H](CO)C(=O)N[C@@H](CCN)C(=O)N[C@H](C)C(=O)N[C@H](C)C(=O)N[C@H](C)C(=O)N[C@H](C)C(=O)N[C@H](C)C(=O)N[C@H](CC(C)C)C(=O)N[C@@H](CCN)C(=O)N[C@@H](C(=O)N[C@H](CC(C)C)C(=O)N[C@H](CC(C)C)C(=O)N[C@@H](CCN)C(=O)N[C@H](C)C(=O)N[C@H](CC(C)C)C(=O)N[C@H](CO)C(=O)N[C@@H](CCN)C(N)=O)[C@H](C)O)[C@H](C)O	RP-HPLC temperature profiling		pH 2	relative to: random coil control	self-association parameter	12.5 min
CC(=O)N[C@@H](Cc1c[nH]c2ccccc12)C(=O)N[C@@H](CC(=O)O)C(=O)N[C@@H](CC(=O)O)C(=O)N[C@@H](C)C(=O)N[C@H](C(=O)N[C@@H](CCCCN)C(=O)N[C@H](C(=O)N[C@@H](Cc1c[nH]c2ccccc12)C(=O)N[C@H](C(=O)NCC(N)=O)[C@@H](C)O)[C@@H](C)O)[C@@H](C)O	circular dichroism	phosphate buffer	pH 6.5		Tm	20 ± 2.5 °C
[123I]c1cncc(OC[C@@H]2CCN2)c1	SPECT	human, temporal lobe	intravenous bolus, 8.1 mCi	relative to: plasma	tissue/plasma ratio	8.2
CSCC[C@@H]1NC(=O)[C@H](CC(=O)O)NC(=O)CNC(=O)[C@H](CCCNC(=N)N)NC(=O)[C@H](C)NC(=O)[C@H](CCC(=O)O)NC(=O)[C@H](CCCNC(=N)N)NC(=O)[C@@H]2CSSC[C@@H]3NC(=O)[C@H](CO)NC(=O)[C@H]([C@@H](C)O)NC(=O)[C@@H]4CCCN4C(=O)[C@H](C)NC(=O)[C@H](Cc4c[nH]c5ccccc45)NC(=O)[C@H](CC(=O)O)NC(=O)CNC(=O)[C@H](CCCNC(=N)N)NC(=O)CNC(=O)[C@H](CCC(N)=O)NC(=O)[C@@H]4CCCN4C(=O)[C@@H](NC(=O)CNC(=O)C(C)F)CSSC[C@H](NC(=O)CNC(=O)[C@H](C)NC(=O)[C@H](CC(C)C)NC(=O)[C@H](CSSC[C@@H](C(=O)NCC(N)=O)NC(=O)[C@H]([C@@H](C)O)NC(=O)[C@H](CCCNC(=N)N)NC(=O)[C@@H]4CCCN4C1=O)NC(=O)[C@H](CC(=O)O)NC(=O)[C@H](CO)NC(=O)[C@H](CC(=O)O)NC(=O)[C@H](CCC(N)=O)NC(=O)[C@H](CO)NC3=O)C(=O)N[C@@H](C(C)C)C(=O)N2 (stereo partly drawn) [fluorine-18 labelled]		nude mice U-87 MG xenograft, blood	intravenous, 1 h		tissue uptake	0.36 ± 0.07 %ID/g
C=C(C)[C@@H]1CC[C@]2(NCCN3CCS(=O)(=O)CC3)CC[C@]3(C)[C@H](CC[C@@H]4[C@@]5(C)CC=C(C6=CC[C@@](CF)(C(=O)O)CC6)C(C)(C)[C@@H]5CC[C@]43C)[C@@H]12		human, serum	50 mg multiple dose, day 16		peak ALT	83 IU/L
CCc1cccc(CC)c1N(COC)C(=O)CCl	LC-MS/MS	herbicide solution	2 h, 4 °C, together with: 254 nm UV exposure		remaining amount	10.6 ± 4.85%
O[C@H]1CCCN[C@@H]1CCCn1cnc2c(Cl)c(Cl)ccc21		human, plasma	oral, 300 mg, single dose, healthy volunteers		Vd/F	2360 L
CC(C)C[C@H](NC(=O)[C@H](Cc1ccccc1)NC(=O)CNC(=O)[C@H](NC(=O)[C@@H](N)Cc1ccc(O)cc1)[C@H](C)O)C(=O)N[C@@H](CO[C@@H]1O[C@H](CO)[C@@H](O[C@@H]2O[C@H](CO)[C@H](O)[C@H](O)[C@H]2O)[C@H](O)[C@H]1O)C(N)=O		rat, dorsolateral striatum dialysate	ip, 10 mg/kg, 80 min		dialysate level relative to leu-enkephalin	~10 fold
CN[C@@](C)(C[18F])C(=O)O		mouse, bone	30 min, tumour-bearing		tracer uptake	4.3 %ID/g
CC[C@H](C)[C@H](NC(=O)[C@H](CC(C)C)NC(=O)[C@H](Cc1c[nH]c2ccccc12)NC(=O)[C@H](CCC(N)=O)NC(=O)[C@@H](NC(=O)[C@H](Cc1ccccc1)NC(=O)[C@H](C)NC(=O)[C@H](CCCCNC(=O)COCCOCCNC(=O)COCCOCCNC(=O)CC[C@H](NC(=O)CCCCCCCCCCCCCCCCCCC(=O)O)C(=O)O)NC(=O)[C@H](CCC(N)=O)NC(=O)[C@H](C)NC(=O)[C@@H](NC(=O)[C@H](CCCCN)NC(=O)[C@H](CC(=O)O)NC(=O)[C@H](CC(C)C)NC(=O)C(C)(C)NC(=O)[C@@H](NC(=O)[C@H](CO)NC(=O)[C@H](Cc1ccc(O)cc1)NC(=O)[C@H](CC(=O)O)NC(=O)[C@H](CO)NC(=O)[C@@H](NC(=O)[C@H](Cc1ccccc1)NC(=O)[C@@H](NC(=O)CNC(=O)[C@H](CCC(=O)O)NC(=O)C(C)(C)NC(=O)[C@@H](N)Cc1ccc(O)cc1)[C@@H](C)O)[C@@H](C)O)[C@@H](C)CC)[C@@H](C)CC)C(C)C)C(=O)N[C@@H](C)C(=O)NCC(=O)NCC(=O)N1CCC[C@H]1C(=O)N[C@@H](CO)C(=O)N[C@@H](CO)C(=O)NCC(=O)N[C@@H](C)C(=O)N1CCC[C@H]1C(=O)N1CCC[C@H]1C(=O)N1CCC[C@H]1C(=O)N[C@@H](CO)C(N)=O		human, plasma	subcutaneous, 5 mg, week 8, steady state, geometric mean		CL/F	0.48 mL/min
O=c1[nH]c(=O)[nH]c(=O)[nH]1	LC-MS/MS	CD IGS rat, pregnant female, amniotic fluid vs serum	oral, 1000 mg/kg/day, 10 days		Pearson correlation coefficient	0.83
CCCCCOc1ccc(-c2ccc(-c3ccc(C(=O)N[C@H]4C[C@@H](O)[C@@H](OCC[N+](C)(C)C)NC(=O)[C@@H]5[C@@H](O)[C@@H](C)CN5C(=O)[C@H]([C@@H](C)O)NC(=O)[C@H]([C@H](O)[C@@H](O)c5ccc(O)cc5)NC(=O)[C@@H]5C[C@@H](O)CN5C(=O)[C@H]([C@@H](C)O)NC4=O)cc3)cc2)cc1		healthy adult humans, plasma	subcutaneous, 10 mg, mean		Vz/F	71.9 L
COc1cnc(-n2cnc(C)n2)c2[nH]cc(C(=O)C(=O)N3CCN(C(=O)c4ccccc4)CC3)c12		human	oral, dose not given, 12 h, together with: fostemsavir 600 mg BID with methadone		C12	409 ng/mL
C[C@@H](O)[C@H](NC(=O)[C@H](Cc1ccc(O)cc1)NC(=O)[C@@H](NC(=O)[C@H](CCC(N)=O)NC(=O)CN)[C@@H](C)O)C(=O)N[C@@H](CO)C(=O)NCC(=O)O		rat blood	concentration not given, 25 °C, together with: protease inhibitors	relative to: no inhibitor	half-life change	no effect
O=c1[nH]c(Cc2ccccn2)nc2c1cnn2C1CCOCC1		male human, plasma	oral, 50 mg, single dose		half-life	80.4 min
CCCCCCCCCCCCCCCC(=O)NCCCC[C@H](NC(=O)[C@H](CCC(=O)O)NC(=O)[C@H](CCC(=O)O)NC(=O)[C@H](Cc1ccc(O)cc1)NC(=O)[C@H](CCC(=O)O)NC(=O)CCCCCNC(=S)Nc1ccc2c(c1)C(=O)OC21c2ccc(O)cc2Oc2cc(O)ccc21)C(=O)N[C@@H](Cc1ccc(O)cc1)C(=O)N[C@@H](CCC(=O)O)C(=O)NCC(=O)NCC(=O)NCC(=O)NCC(=O)N[C@@H](CO)C(=O)NCC(=O)NCC(=O)NCC(=O)NCC(=O)N[C@@H](CO)C(=O)N[C@@H](Cc1ccccc1)C(=O)N[C@@H](CC(N)=O)C(=O)N1CCC[C@H]1C(=O)N[C@@H](CCCNC(=N)N)C(=O)N[C@@H](Cc1c[nH]cn1)C(=O)NC(C)(C)C(=O)N[C@@H](CCC(=O)O)C(=O)NCC(=O)N[C@H](C(=O)N[C@@H](Cc1ccccc1)C(=O)N[C@H](C(=O)N[C@@H](CO)C(=O)N[C@@H](CC(=O)O)C(=O)N[C@H](C(=O)N[C@@H](CO)C(=O)N[C@@H](CO)C(=O)N[C@@H](Cc1ccc(O)cc1)C(=O)N[C@@H](CC(C)C)C(=O)N[C@@H](CCC(=O)O)C(=O)NCC(=O)N[C@@H](CCC(N)=O)C(=O)N[C@@H](C)C(=O)N[C@@H](C)C(=O)N[C@@H](CCCCN)C(=O)N[C@@H](CCC(=O)O)C(=O)N[C@@H](Cc1ccccc1)C(=O)N[C@H](C(=O)N[C@@H](C)C(=O)N[C@@H](Cc1c[nH]c2ccccc12)C(=O)N[C@@H](CC(C)C)C(=O)N[C@H](C(=O)N[C@@H](CCCCN)C(=O)NCC(=O)N[C@@H](CCCNC(=N)N)C(=O)NCC(=O)O)C(C)C)[C@@H](C)CC)C(C)C)[C@@H](C)O)[C@@H](C)O	measured: released GLP-1 analogue	rhesus monkey, plasma	subcutaneous, 30 nmol/kg		half-life	5450 min
COc1ccc(C[C@@H]2NC(=O)[C@H]([C@@H](C)O)NC(=O)[C@@H]3[C@@H]4CCN3C(=O)[C@@H]3Cc5cn(c6ccc(F)cc56)CCCCCCN(Cc5ccc(cc5)CCNC(=O)[C@]5(C)CCCN5C2=O)C(=O)CCC(=O)N[C@@H](C)C(=O)N[C@H](CNC(=O)CCCCC[N+](C)(C)C)C(=O)N[C@@H](Cc2cccc(c2)CNC(=O)CO4)C(=O)N3)cc1		fasted healthy humans, plasma	oral, 10 mg single dose, with 1800 mg Labrasol, geometric mean		Vz/F	1270 L
COc1ccc(C(=O)NCc2cc(C(C)C)no2)cc1OC1CCN(C)CC1		male Sprague-Dawley rat, plasma	intravenous, 1 mg/kg, 15 min		concentration	129 ng/mL
CC(C)N(CCCCOCC(=O)O)c1cnc(-c2ccccc2)c(-c2ccccc2)n1		human, PAH patients, plasma	oral, dose not given, together with: ERA plus PDE5 inhibitor comedication	relative to: patients without comedication	exposure reduction	30%

Some of these lines once more:
Compound	test	system	setting	how to read	quantity	value
O[C@H]1CCCN[C@@H]1CCCn1cnc2c(Cl)c(Cl)ccc21		human, plasma	oral, 300 mg, single dose, healthy volunteers		Vd/F	2360 L
CSCC[C@@H]1NC(=O)[C@H](CC(=O)O)NC(=O)CNC(=O)[C@H](CCCNC(=N)N)NC(=O)[C@H](C)NC(=O)[C@H](CCC(=O)O)NC(=O)[C@H](CCCNC(=N)N)NC(=O)[C@@H]2CSSC[C@@H]3NC(=O)[C@H](CO)NC(=O)[C@H]([C@@H](C)O)NC(=O)[C@@H]4CCCN4C(=O)[C@H](C)NC(=O)[C@H](Cc4c[nH]c5ccccc45)NC(=O)[C@H](CC(=O)O)NC(=O)CNC(=O)[C@H](CCCNC(=N)N)NC(=O)CNC(=O)[C@H](CCC(N)=O)NC(=O)[C@@H]4CCCN4C(=O)[C@@H](NC(=O)CNC(=O)C(C)F)CSSC[C@H](NC(=O)CNC(=O)[C@H](C)NC(=O)[C@H](CC(C)C)NC(=O)[C@H](CSSC[C@@H](C(=O)NCC(N)=O)NC(=O)[C@H]([C@@H](C)O)NC(=O)[C@H](CCCNC(=N)N)NC(=O)[C@@H]4CCCN4C1=O)NC(=O)[C@H](CC(=O)O)NC(=O)[C@H](CO)NC(=O)[C@H](CC(=O)O)NC(=O)[C@H](CCC(N)=O)NC(=O)[C@H](CO)NC3=O)C(=O)N[C@@H](C(C)C)C(=O)N2 (stereo partly drawn) [fluorine-18 labelled]		nude mice U-87 MG xenograft, blood	intravenous, 1 h		tissue uptake	0.36 ± 0.07 %ID/g
